Published values collected from several papers.
Each numbered part is a random draw from the data of one study; scales do not carry over between parts.
Sequence of UniProt P09769 (whole entry, looked up): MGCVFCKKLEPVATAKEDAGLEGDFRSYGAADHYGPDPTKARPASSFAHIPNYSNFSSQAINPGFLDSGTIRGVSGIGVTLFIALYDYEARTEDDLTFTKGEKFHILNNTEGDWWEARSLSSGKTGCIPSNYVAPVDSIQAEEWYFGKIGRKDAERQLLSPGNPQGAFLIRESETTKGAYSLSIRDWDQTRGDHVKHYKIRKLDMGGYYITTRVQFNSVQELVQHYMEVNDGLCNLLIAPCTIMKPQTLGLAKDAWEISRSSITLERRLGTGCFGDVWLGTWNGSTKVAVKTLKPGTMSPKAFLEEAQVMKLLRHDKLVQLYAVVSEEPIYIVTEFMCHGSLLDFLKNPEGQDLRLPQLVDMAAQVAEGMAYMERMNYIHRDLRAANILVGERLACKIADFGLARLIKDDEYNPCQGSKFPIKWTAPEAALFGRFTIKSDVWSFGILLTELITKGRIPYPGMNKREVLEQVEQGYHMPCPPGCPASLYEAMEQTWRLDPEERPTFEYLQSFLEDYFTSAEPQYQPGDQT
Sequence of UniProt P53355 (whole entry, looked up): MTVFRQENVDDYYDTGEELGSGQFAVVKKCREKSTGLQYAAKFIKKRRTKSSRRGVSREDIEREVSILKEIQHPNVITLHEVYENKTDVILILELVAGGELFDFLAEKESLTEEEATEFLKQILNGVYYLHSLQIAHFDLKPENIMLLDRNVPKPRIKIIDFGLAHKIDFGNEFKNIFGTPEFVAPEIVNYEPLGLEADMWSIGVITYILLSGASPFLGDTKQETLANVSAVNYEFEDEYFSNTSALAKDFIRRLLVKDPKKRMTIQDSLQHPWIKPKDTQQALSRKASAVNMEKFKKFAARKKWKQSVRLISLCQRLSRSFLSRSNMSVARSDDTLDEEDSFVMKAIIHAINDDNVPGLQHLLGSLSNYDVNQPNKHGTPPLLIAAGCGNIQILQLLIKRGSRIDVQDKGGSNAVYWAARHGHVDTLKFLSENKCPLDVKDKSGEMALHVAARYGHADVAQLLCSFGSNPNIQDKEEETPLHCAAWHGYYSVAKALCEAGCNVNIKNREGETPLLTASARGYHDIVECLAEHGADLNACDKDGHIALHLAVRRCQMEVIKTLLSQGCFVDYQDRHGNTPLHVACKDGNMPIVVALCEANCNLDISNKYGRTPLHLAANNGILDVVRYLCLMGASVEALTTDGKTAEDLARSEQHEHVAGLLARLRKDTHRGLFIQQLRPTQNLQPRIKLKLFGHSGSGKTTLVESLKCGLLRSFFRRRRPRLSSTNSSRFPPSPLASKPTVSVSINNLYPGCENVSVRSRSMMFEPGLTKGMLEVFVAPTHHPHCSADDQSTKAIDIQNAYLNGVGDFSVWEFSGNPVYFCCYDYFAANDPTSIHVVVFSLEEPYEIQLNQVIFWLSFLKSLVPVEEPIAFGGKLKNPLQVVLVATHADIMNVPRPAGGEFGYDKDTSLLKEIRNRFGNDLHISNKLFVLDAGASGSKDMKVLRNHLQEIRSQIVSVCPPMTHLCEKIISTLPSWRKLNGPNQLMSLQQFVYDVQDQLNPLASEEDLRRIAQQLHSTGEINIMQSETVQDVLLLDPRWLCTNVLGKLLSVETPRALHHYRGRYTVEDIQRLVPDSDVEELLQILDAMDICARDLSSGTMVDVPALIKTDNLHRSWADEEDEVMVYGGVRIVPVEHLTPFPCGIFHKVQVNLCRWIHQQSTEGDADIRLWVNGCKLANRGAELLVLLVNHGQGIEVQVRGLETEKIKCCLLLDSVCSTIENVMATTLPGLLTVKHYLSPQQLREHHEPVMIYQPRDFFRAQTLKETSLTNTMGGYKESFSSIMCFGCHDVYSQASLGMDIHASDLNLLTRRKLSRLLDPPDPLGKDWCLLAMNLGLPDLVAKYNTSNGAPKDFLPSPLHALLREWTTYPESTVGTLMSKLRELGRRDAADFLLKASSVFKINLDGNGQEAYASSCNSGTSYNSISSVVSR
Sequence of UniProt P10721 (whole entry, unmodified, looked up): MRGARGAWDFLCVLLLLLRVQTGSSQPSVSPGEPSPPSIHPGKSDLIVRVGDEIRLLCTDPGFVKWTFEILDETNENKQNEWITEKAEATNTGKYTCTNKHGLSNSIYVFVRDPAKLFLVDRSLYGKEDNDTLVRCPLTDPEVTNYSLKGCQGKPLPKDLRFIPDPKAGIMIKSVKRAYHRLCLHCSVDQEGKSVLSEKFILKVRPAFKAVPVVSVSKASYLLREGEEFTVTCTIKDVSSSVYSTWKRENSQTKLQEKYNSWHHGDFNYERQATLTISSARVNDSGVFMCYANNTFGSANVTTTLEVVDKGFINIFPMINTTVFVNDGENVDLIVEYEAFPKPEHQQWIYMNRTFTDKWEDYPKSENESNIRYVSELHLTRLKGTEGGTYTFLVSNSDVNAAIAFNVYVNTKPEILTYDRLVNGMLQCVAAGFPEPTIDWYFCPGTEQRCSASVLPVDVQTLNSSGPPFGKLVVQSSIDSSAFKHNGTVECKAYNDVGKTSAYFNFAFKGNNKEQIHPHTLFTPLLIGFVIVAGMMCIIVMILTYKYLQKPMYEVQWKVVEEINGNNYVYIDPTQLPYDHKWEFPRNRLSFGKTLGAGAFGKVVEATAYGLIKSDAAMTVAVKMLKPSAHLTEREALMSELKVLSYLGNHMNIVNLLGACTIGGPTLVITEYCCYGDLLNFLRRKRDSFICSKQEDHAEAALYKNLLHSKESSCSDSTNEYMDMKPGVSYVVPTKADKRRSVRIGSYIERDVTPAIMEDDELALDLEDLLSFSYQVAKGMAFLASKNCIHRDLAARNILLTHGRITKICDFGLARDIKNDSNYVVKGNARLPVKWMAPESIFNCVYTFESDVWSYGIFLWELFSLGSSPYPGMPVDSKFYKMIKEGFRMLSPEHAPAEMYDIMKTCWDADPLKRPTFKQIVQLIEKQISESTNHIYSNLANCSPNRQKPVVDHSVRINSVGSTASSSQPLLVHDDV
Sequence of UniProt Q15831 (whole entry, looked up): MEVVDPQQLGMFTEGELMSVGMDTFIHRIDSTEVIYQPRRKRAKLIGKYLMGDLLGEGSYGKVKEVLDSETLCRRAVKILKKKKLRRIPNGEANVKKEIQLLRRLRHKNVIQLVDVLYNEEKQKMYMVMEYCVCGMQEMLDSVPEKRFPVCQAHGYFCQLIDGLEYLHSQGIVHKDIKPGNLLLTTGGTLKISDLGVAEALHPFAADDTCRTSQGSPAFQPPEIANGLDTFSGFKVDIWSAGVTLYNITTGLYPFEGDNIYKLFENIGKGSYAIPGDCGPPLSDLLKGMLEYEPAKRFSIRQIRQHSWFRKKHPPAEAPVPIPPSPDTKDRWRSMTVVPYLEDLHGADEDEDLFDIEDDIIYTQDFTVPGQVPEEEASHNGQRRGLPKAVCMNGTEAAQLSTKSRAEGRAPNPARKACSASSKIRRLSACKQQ
Sequence of UniProt P28482 (whole entry, looked up): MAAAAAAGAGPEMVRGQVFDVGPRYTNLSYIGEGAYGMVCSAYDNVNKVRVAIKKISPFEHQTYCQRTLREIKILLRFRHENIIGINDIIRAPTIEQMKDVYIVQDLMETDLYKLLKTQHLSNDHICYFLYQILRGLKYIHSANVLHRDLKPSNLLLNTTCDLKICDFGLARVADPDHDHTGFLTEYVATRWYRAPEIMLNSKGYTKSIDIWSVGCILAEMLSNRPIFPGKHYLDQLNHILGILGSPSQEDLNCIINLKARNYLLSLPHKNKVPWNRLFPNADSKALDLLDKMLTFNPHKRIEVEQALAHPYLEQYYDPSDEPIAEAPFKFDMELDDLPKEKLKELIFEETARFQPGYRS
Sequence of UniProt O95747 (whole entry, looked up): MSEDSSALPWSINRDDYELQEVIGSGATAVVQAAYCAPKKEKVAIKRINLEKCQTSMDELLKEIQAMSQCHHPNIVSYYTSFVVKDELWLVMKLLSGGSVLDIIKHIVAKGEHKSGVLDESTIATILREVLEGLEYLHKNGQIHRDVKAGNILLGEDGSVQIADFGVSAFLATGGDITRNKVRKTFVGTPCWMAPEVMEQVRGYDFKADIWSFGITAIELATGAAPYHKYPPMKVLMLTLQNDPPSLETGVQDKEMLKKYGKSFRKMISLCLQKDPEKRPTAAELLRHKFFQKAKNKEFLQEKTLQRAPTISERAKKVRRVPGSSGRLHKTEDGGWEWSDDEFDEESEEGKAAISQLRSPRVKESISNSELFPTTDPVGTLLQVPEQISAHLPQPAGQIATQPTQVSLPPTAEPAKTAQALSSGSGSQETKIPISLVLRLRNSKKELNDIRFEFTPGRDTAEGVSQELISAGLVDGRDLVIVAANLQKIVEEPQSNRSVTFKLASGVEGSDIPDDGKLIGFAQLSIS

Set 1
Cell line: HuT78
Tested at: 2 µM
Time: 48 h
Relative to: untreated
| SMILES | viability [%] |
| --- | --- |
| CN1CCCN(C(=O)c2cccc(-c3ccc(/C=C4/C(=O)Nc5ccc(Cl)cc54)o3)c2)CC1 | 9.92 |
| COc1cc2nccc(Oc3ccc(NC(=O)Nc4ccc(F)cc4F)c(F)c3)c2cc1OC | 141 |
| N#C/C(=C(/N)Sc1ccc(N)cc1)c1ccccc1C(F)(F)F | 130 |
| Cc1cc(C)c(/C=C2\C(=O)Nc3ccccc32)[nH]1 | 103 |
| C=CC(=O)Nc1ccc(CN2C(=O)N(c3cc(OC)cc(OC)c3)Cc3cnc(Nc4ccc(N5CCN(C)CC5)cc4)nc32)cc1 | 112 |
| COc1ccc2c(Oc3ccc(NC(=O)c4c(C)n(CC(C)(C)O)n(-c5ccccc5)c4=O)nc3)ccnc2c1 | 127 |
| COc1cc2c(Oc3ccc(NC(=O)C4(C(=O)Nc5ccc(F)cc5)CC4)cc3F)ccnc2cc1OCCCN1CCOCC1 | 91 |
| O=c1cc(-c2cccc3c2Sc2ccccc2S3)oc(N2CCOCC2)c1 | 167 |
| COc1ccc(-c2cc3c(C)nc(N)nc3n([C@H]3CC[C@H](OCCO)CC3)c2=O)cn1 | 48.6 |
| O=C(NCc1cccc(O)c1)Nc1nc(-c2ccncc2)cs1 | 88.5 |
| CN1CCC(CNc2ccc3ncc(-c4cccc(OC(F)(F)F)c4)n3n2)CC1 | 99.7 |
| Nc1cccc(S(=O)(=O)N2CCCN(S(=O)(=O)c3ccc4c(c3)OCCO4)CC2)c1 | 123 |
| CNC(=O)CN1CCC(Oc2cc3c(Nc4cccc(Cl)c4F)ncnc3cc2OC)CC1 | 123 |

Set 2
Compound: NC(=O)c1ccc(-c2nc(-c3ccc4c(c3)OCCO4)c(-c3ccccn3)[nH]2)cc1
Read-out: enzyme activity
Action: inhibitor
Tested at: 0.5 µM
Relative to: control
| target | remaining activity [%] |
| --- | --- |
| TGFBR2 (Homo sapiens, UniProt P37173) | 89.3 |
| Cyclin-dependent kinase 5, with p25 (CDK5, Homo sapiens, UniProt Q00535) | 91 |
| Cyclin-dependent kinase 4, with cyclin D1 (CDK4, Homo sapiens, UniProt P11802) | 84 |
| CAMKK2 (Homo sapiens, UniProt Q96RR4) | 103 |
| Tyrosine-protein kinase Lyn, isoform B (LYN, Homo sapiens, UniProt P07948) | 102 |
| PRKACA (Homo sapiens, UniProt P17612) | 102 |
| DAPK1 (Homo sapiens, UniProt P53355) | 97.6 |
| OXSR1 (Homo sapiens, UniProt O95747) | 92.7 |
| CHEK2 (Homo sapiens, UniProt O96017) | 95 |
| GRK3 (Homo sapiens, UniProt P35626) | 96.5 |
| STK39 (Homo sapiens, UniProt Q9UEW8) | 107 |
| STK11 (Homo sapiens, UniProt Q15831) | 90.9 |
| cGMP-dependent protein kinase 1, isoform beta (PRKG1, Homo sapiens, UniProt Q13976) | 94.7 |
| MAPK9 (Homo sapiens, UniProt P45984) | 102 |
| IKBKE (Homo sapiens, UniProt Q14164) | 99.7 |
| STK10 (Homo sapiens, UniProt O94804) | 93 |
| CAMK2D (Homo sapiens, UniProt Q13557) | 95.2 |
| IKBKB (Homo sapiens, UniProt O14920) | 102 |
| PRKCA (Homo sapiens, UniProt P17252) | 83.1 |
| MAP3K3 (Homo sapiens, UniProt Q99759) | 115 |

Set 3
SMILES: CC(C)n1cnc(-c2ccc(F)cc2)c1-c1ncc(C(=O)Nc2ccc(N3CCN(C)CC3)cc2)[nH]1
Technique: phase 2a trial
Host: idiopathic pulmonary fibrosis patients
| conditions | patients with lower respiratory infection [%] |
| --- | --- |
| 60 mg once daily, grade 4 | 0 |
| all dose arms pooled, grade 1 | 0 |
| 30 mg once daily, grade 1 | 0 |
| 30 mg once daily, grade 3 | 0 |
| all dose arms pooled, grade 4 | 0 |
| 60 mg once daily, grade 2 | 0 |
| 60 mg once daily, grade 5 | 0 |
| all dose arms pooled, grade 3 | 0 |
| all dose arms pooled, grade 5 | 0 |

Set 4
Structure (SMILES): NS(=O)(=O)c1cc(NC(=O)C2(c3ccccc3Cl)CC2)ccc1Oc1cccc(Cl)c1
Tested at: 1 µM
| target | test | remaining binding [%] |
| --- | --- | --- |
| GRK1 (Homo sapiens, UniProt Q15835) | cell-free assay, competition with immobilised ligand | 72 |
| MYLK3 (Homo sapiens, UniProt Q32MK0) | cell-free assay, competition with immobilised ligand | 89 |
| PRKCE (Homo sapiens, UniProt Q02156) | cell-free assay, competition with immobilised ligand | 65 |
| BRSK2 (Homo sapiens, UniProt Q8IWQ3) | cell-free assay, competition with immobilised ligand | 87 |
| CAMK1G (Homo sapiens, UniProt Q96NX5) | cell-free assay, competition with immobilised ligand | 100 |
| CDC42BPG (Homo sapiens, UniProt Q6DT37) | competition binding | 82 |
| MARK1 (Homo sapiens, UniProt Q9P0L2) | cell-free assay, competition with immobilised ligand | 83 |
| CSNK1G3 (Homo sapiens, UniProt Q9Y6M4) | cell-free assay, competition with immobilised ligand | 100 |
| HIPK4 (Homo sapiens, UniProt Q8NE63) | cell-free assay, competition with immobilised ligand | 58 |
| KIT (Homo sapiens, UniProt P10721, V559D) | cell-free assay, competition with immobilised ligand | 79 |
| TRPM6 (Homo sapiens, UniProt Q9BX84) | cell-free assay, competition with immobilised ligand | 95 |
| EPHA4 (Homo sapiens, UniProt P54764) | cell-free assay, competition with immobilised ligand | 100 |
| CAMK2G (Homo sapiens, UniProt Q13555) | cell-free assay, competition with immobilised ligand | 93 |
| MAP3K12 (Homo sapiens, UniProt Q12852) | cell-free assay, competition with immobilised ligand | 100 |
| FGFR3 (Homo sapiens, UniProt P22607) | cell-free assay, competition with immobilised ligand | 100 |
| Insulin receptor (INSR, Homo sapiens, UniProt P06213) | cell-free assay, competition with immobilised ligand | 100 |
| FGR (Homo sapiens, UniProt P09769) | cell-free assay, competition with immobilised ligand | 54 |
| LRRK2 (Homo sapiens, UniProt Q5S007) | cell-free assay, competition with immobilised ligand | 89 |
| SLK (Homo sapiens, UniProt Q9H2G2) | cell-free assay, competition with immobilised ligand | 79 |
| MAPK1 (Homo sapiens, UniProt P28482) | cell-free assay, competition with immobilised ligand | 75 |
| STK32B (Homo sapiens, UniProt Q9NY57) | cell-free assay, competition with immobilised ligand | 91 |
| Tyrosine-protein kinase ABL1, phosphorylated (ABL1, Homo sapiens, UniProt P00519, H396P) | cell-free assay, competition with immobilised ligand | 93 |
| MUSK (Homo sapiens, UniProt O15146) | cell-free assay, competition with immobilised ligand | 77 |
| ALK (Homo sapiens, UniProt Q9UM73, L1196M) | cell-free assay, competition with immobilised ligand | 85 |
| PIK3C2G (Homo sapiens, UniProt O75747) | cell-free assay, competition with immobilised ligand | 100 |

Excerpt of the above (set 4):
| target | test | remaining binding [%] |
| --- | --- | --- |
| GRK1 (Homo sapiens, UniProt Q15835) | cell-free assay, competition with immobilised ligand | 72 |
| MYLK3 (Homo sapiens, UniProt Q32MK0) | cell-free assay, competition with immobilised ligand | 89 |
| PRKCE (Homo sapiens, UniProt Q02156) | cell-free assay, competition with immobilised ligand | 65 |
| BRSK2 (Homo sapiens, UniProt Q8IWQ3) | cell-free assay, competition with immobilised ligand | 87 |
| CAMK1G (Homo sapiens, UniProt Q96NX5) | cell-free assay, competition with immobilised ligand | 100 |
